Results of several laboratories.
Every numbered part comes from another study and shows a few of its results, in no order.

Study 1
Target: Myc proto-oncogene protein, bHLH-zipper, MAX partner unstated (MYC, Homo sapiens, UniProt P01106, residues 368-449)
Chain of UniProt P01106 (368-449, looked up): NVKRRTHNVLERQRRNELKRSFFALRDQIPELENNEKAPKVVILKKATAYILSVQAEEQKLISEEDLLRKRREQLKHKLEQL
Technique: protein-binding microarray
Form: double-stranded DNA, one strand shown
Medium: in vitro
Tested at: not given
Notes: k-mer, scored over probes, only values ≥0.25
Reading: higher = stronger binding
Measurement: E-score
Strand = ACGCGACT; result = 0.344
Strand = AGGGGCGG; result = 0.299
Strand = GGGTGGAC; result = 0.319

Study 2
Target: Interferon regulatory factor 7, full length, phosphomimetic (IRF7, Homo sapiens, UniProt Q92985, residues 1-503, S101K/S471D/S472D/S475D/S476D/S477D/S483D/S484D/S487D)
Chain of UniProt Q92985 (whole entry, unmodified, looked up): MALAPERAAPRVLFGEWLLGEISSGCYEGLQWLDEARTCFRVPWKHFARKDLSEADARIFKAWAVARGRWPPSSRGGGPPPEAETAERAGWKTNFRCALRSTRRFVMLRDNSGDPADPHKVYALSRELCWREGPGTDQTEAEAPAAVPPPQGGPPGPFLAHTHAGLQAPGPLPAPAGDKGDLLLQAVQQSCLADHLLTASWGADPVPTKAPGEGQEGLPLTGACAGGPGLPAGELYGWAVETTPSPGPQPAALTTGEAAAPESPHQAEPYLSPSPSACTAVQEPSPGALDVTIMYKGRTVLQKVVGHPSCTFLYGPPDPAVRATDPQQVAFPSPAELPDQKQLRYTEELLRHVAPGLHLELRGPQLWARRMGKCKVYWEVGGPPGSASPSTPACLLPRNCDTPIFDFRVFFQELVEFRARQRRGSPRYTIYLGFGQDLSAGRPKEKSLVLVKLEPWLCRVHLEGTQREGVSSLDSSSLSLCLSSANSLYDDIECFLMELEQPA
Technique: protein-binding microarray
Form: double-stranded DNA, one strand shown
Medium: in vitro
Tested at: 250 nM
Notes: 60-bp whole probe
Together with: salmon DNA 0.4 mg/ml
Baseline: random background probes
Reading: higher = stronger binding
Measurement: log fluorescence
Strand = GCCTAGCACATGCATGTAAATAATCAGACAGTGCTAGTCTTGATTCGCTTGACGCTGCTG; result = -0.357 z-score
Strand = GCCTAGCACGATGATCTCAGTATCGAGACGTGCTAGGTCTTGATTCGCTTGACGCTGCTG; result = -0.0301 z-score
Strand = GCCTAGCACGACAATTTCGGGTATCGAGACGTGCTAGTCTTGATTCGCTTGACGCTGCTG; result = 1.25 z-score
Strand = GCCTAGCACTTAGATCTCGGTCTCGATTAGTGCTAGGTCTTGATTCGCTTGACGCTGCTG; result = 1.58 z-score

Study 3
Target: Ras GTPase-activating protein-binding protein 1, C-terminal RGG region (G3BP1, Homo sapiens, UniProt Q13283)
Chain of UniProt Q13283 (whole entry, looked up): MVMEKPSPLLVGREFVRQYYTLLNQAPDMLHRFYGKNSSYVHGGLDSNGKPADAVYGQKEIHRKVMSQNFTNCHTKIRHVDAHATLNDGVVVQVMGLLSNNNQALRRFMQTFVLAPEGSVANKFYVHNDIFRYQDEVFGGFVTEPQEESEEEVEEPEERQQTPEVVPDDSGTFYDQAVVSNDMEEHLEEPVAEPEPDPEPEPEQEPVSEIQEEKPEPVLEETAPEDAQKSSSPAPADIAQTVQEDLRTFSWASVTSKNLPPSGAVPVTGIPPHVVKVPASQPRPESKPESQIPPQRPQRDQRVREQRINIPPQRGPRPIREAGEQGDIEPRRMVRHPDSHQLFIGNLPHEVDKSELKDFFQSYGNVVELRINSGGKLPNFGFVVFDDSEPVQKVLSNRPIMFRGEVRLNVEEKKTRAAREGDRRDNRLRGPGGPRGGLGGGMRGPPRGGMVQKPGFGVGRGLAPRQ
Technique: RNA Bind-n-Seq
Form: RNA
Medium: in vitro
Tested at: 1 µM
Notes: whole 134-nt RNA, ends assumed
Together with: 150 mM KCl
Baseline: input library
Reading: higher = stronger binding
Measurement: log2 enrichment
Strand = GGGAGUUCUACAGUCCGACGAUCCCUGUGCUACACAUCGUAUGUACCGAAUCGGGGAAAGGGGUUUUUUUGGGGAAAAAGGGGAAAGUAUUAUGUUACGCCGUUCGGAUCUGCUGGAAUUCUCGGGUGUCAAGG; result = 0.0296
Strand = GGGAGUUCUACAGUCCGACGAUCUCAAGUCCUGUGCUACACAUCGUAUGUACCGAAUCGGGAGGGUUUUUGGGAGGGAAAGUAUUAUGUUACGCCGUUCGGAUCUGCACUUCCUGGAAUUCUCGGGUGUCAAGG; result = 1.27
Strand = GGGAGUUCUACAGUCCGACGAUCUCAAGUCCUGUGCUACACAUCGUAUGUACCGAAUCGGUUUGGAGGUUUUUUUGGAAAGUAUUAUGUUACGCCGUUCGGAUCUGCACUUCCUGGAAUUCUCGGGUGUCAAGG; result = -0.993

Mixed results
Substance = PhoQ, residues 284 288 289 292 302 303 ASSHFY; target = PhoP, residues 12 14 15 18 19 LHHVQ (Escherichia coli, UniProt P23836); test = Sort-seq, refers to: YFP reporter; system = E. coli; conditions = PhoQ-PhoP variant library, together with: 10 µM Mg2+; how to read = baseline: high Mg2+ state, higher = stronger signaling; measurement = fold induction; result = 14.1

For quick reference, copied from above (study 2):
Strand = GCCTAGCACGACAATTTCGGGTATCGAGACGTGCTAGTCTTGATTCGCTTGACGCTGCTG; result = 1.25 z-score
